# Experimental data of several laboratories.
# Each numbered part is a random draw from the data of one study; scales do not carry over between parts.

# Set 1 — technique: RNA Bind-n-Seq; molecule type: RNA; sample: in vitro; concentration: 365 nM; relative to: no-protein control; direction: higher = stronger binding
# Target: RNA binding protein fox-1 homolog 2, RRM domain, GST-SBP tag (RBFOX2, Homo sapiens, UniProt O43251-10, residues 100-194)
# Setting: natural RNA segment, single round, ends assumed
# Constant ends, left off below: GGGAGUUCUACAGUCCGACGAUC … UGGAAUUCUCGGGUGCCAA
# Residues (chain): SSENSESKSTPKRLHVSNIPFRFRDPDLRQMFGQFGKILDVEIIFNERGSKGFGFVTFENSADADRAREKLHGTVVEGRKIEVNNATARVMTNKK
Strand,RBNS enrichment (R)
CAGAUGGAUUAUUUGUCGACCAAAAUGAUGCCAAUUUGUAAAUUAAAAUGUCACCUAGUGGCCCUUUUUCUUAUGUGUUUUUUGUAUAAGAAAUUUUCUGUGAAAUAUUC,0.497
UUUAAAACUUGAGCCCUGGACCUUUUGUCCUAUGUGUGUGGAUUCCAGGGCAACUCUAGCAUCAGAGCAAAAGCCUUGGGUUUCUCGCAUUCAGUGGCCUAUCUCCAGAU,0.48
ACUCUUUGCCAGCAGCCACAACAUGCAUUGACAGCGGCACAGUGAGAUAUAACUGAUGGGCUUUGAACCUGGUUGGCCGGGGAAGCUGUAGGGGUGGAUAGAGCUGGCUU,1.41
ACUUCCUCUUCUCCGCCCUCAGCUUUCCUCUCAUGUGGCAAACGUGCGACUCUGUGGUCCUGAGUGCCAGAAGCUGUCUCCAUGGGUUGGUCACAGUGUGCAUCGCACCG,0.374
GCAAUGUGGACUGUUUAGAAUUCUAACCAUUUAUGAUAUUCUGGCUGUCCAGGUGAGUGGAAAUUUUUGCAUAGAUUUGACUAGAUGAUUGGUGUAGGUGGCAGUGGAAC,3.98
GACUUUGAACACCCGAGGGGCUGUGCCCCAGCUCCCCACUCCCCCAGGGGCAAUGGCCCCAACCUCCCUUUCAGACUCCAUGAGCCCAGCCCCUAUGUGCCUAGAUGGUU,0.906
ACACCCAGAAAGGGGUGUCCUGACACCCCACCCAGGCCUUGAGGACGGUGCGGUAAUGACUGCCCAGGCUGCCUGAGUCUCUGACCCUCUGAGGAGUUCGAGCAGGGCAG,0.274
CUGGCAGGCUGGCCUGGUGCUGCCCCCUUAGCCCAGAAGCCCUGCCAGGUCCAGUGGCCUGGGGUCCCACUGCUGAGGGCACCUGCCAGGCCUCACUCCACCCUGAAUGG,0.31
UAUGGCCGAAAUUUGGGAGCAGAAGAGGUGAUGUCAUCCUGGAAAACUGGGUAGUUCAUCUGACCAUGGGAUGUGUUUGUUAUGAAGAAAAUCUGGAUGCCUGUGAUUCG,1.55
UCCCUCAUUUUGUAUAUUUAGCCAGAUACAGAAAGCUCACAUCCUGAAGGAAACAUGACCAUUCUGAGUUUAAAAAAAAGUACAAAUUGCUUCUGAGGCACUAUUUGCCC,0.364
GGUGUCCAGAGGUGUGAAAUAUACCAUGUAAUCUCACACAGGUGGACUGUGGAACCGUUUUUAUGGAUUUUGCCCCUGCUUGCUUUCAUCCUGUAACCUAGCCUGUAUUA,5.85
UAAAUUCAUUAUUUUUGUGACAGUAAUUUUGGUACUUGGAAGAGUUCAGAUGCCCAUCUUCUGCAGUUACCAAGGAAGAGAGAUUGUUCUGAAGUUACCCUCUGAAAAAU,0.469

# Set 2 — technique: protein-binding microarray; molecule type: double-stranded DNA, one strand shown; sample: in vitro; concentration: not given; direction: higher = stronger binding
# Target: TATA-box-binding protein 1 (TBP1, Arabidopsis thaliana, UniProt P28147, residues 1-200, full length assumed)
# Setting: k-mer, scored over probes, only values ≥0.25
# Construct (chain): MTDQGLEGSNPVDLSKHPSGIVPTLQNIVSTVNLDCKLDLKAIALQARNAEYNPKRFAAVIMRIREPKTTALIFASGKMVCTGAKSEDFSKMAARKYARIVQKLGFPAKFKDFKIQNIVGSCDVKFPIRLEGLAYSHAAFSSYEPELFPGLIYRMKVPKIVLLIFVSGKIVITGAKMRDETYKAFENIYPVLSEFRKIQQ
Strand,E-score
ATAACAA,0.279
AAAAACC,0.281
TAATTAA,0.385
GGATATA,0.41
ATATCTA,0.349
AATAAAC,0.367
TATACGA,0.309
ATAAGGC,0.255
ATTTATG,0.391
AAAATAC,0.288
GTCATAA,0.26
ACTTAAT,0.285
GGTATAC,0.284
TATAACA,0.417
ACATATG,0.271
TCAATAA,0.304
AAAATTA,0.323
ATACTTA,0.372
ATATCAT,0.369

# Set 3 — technique: protein-binding microarray; molecule type: double-stranded DNA, one strand shown; sample: in vitro; concentration: 0.8 µM; setting: whole 60-bp probe, no competitor; direction: higher = stronger binding; constant ends, left off below: … GTCTTGATTCGCTTGACGCTGCTG
# Target: Centromere-binding protein 1, full length, N-terminal tag (CBF1, Saccharomyces cerevisiae, UniProt P17106, residues 1-351)
# Chain of UniProt P17106 (whole entry, looked up): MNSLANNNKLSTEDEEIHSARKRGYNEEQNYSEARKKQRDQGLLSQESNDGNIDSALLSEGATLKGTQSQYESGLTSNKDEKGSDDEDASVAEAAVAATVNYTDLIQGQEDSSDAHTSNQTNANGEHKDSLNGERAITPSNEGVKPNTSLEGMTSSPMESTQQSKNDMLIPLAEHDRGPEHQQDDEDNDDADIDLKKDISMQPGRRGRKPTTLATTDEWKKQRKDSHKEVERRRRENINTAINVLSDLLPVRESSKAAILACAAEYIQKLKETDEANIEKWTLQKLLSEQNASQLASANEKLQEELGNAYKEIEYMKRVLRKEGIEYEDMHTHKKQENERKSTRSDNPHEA
Strand,fluorescence intensity [a.u.]
CTATGGGAATTCTCTGATGTTGTTTTCCAAAGATTC,511
GAAATCTTCATAGTGATCATGAAGTTGTGGGAATAG,566
CTAACCCATTTCGCCATCACTATTTTTACCATTTTC,511
GAATACCTATTACTGCATGTGGAGAAAAGATTATAG,632
GAAAAACAGATAGACAGCATGACGGCTGAAGCCTAG,485
CTAGCATCATACTACCACGATCACAGTTCACGATTC,558
GAACAATTATGTGGTCACGATCACTCGTTGCTTTAG,1350
CTAGTTTCGCGGCGTTACACGTGAGTTCATATTTTC,4210
CCTAACTACTATATGCAGCTGATATAGCTTCGTACA,679
CTATTAAGTTGAAATCACGCTAACATATGACTATTC,768
GAACATACGGCGGCTCTCCTGATTGCGGTGGGTTAG,543
TGTACGAAGCTATACCACGCGCTTATAGTAGTTAGG,581
GAATTCCTTAATCATTATGTCACCTTCCTATGCTAG,529
GAATGAAAGTTCTTGAACGTGAAAGAAAGAAAATAG,554
CTATAGGAATTGTGCGTGGTCATTCAATACGGATTC,550
CCTAACTACTATACCCACGATGGATAGCTTCGTACA,488
GAATGTTGTCACCTCCAGGTGATTTGCTGTCTTTAG,550
CTAATAGTTCTAAAGCACGCATATATATTTATATTC,537
CCTAACTACTATAGACATGTGTTATAGCTTCGTACA,633
CCTAACTACTATAATCACCTTACATAGCTTCGTACA,537
CTAGGTCTCTCTCACCTCGTGATGTTACGAACGTTC,1530

# Set 4 — technique: protein binding microarray; molecule type: double-stranded DNA, one strand shown; sample: in vitro; concentration: not given; relative to: not given; direction: higher = stronger binding
# Target: Histone acetyltransferase KAT6A, winged helix 2, GST fusion (KAT6A, Homo sapiens, UniProt Q92794, residues 85-181)
# Setting: 8-mer, flanks averaged, mean of 2 arrays, mostly near background
# Target sequence (chain): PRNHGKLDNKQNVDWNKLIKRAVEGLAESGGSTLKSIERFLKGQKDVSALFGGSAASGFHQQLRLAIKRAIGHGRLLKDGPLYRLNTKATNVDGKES
Strand,E-score
AGCGAGTA,0.0852
CACATTTA,-0.0866
AAACAGGA,0.0038
TCGACTAA,0.0843
AGGAATTC,-0.0549
CTGTAAGA,-0.189
AAGAGACG,0.0145
AACCGACA,0.1
AGGGTCAC,-0.138
CCTGGTAC,0.0654
GCAAAACC,0.0245
ACCCGCTG,0.112
CGAATCAC,0.0471
ATCTGCTC,0.118
GAATCACA,-0.14
AAAACGAA,0.0561
GGTGTACA,-0.228
GATGCATC,0.00128
CTCCGGCC,0.0376
AGGCTGTG,0.0386
GCCTAGAC,-0.135
AGCCTAGA,-0.155
AGAACCAG,-0.0723
CAACATAC,-0.00857
TCCTAAGA,-0.0478

# Set 5 — technique: protein-binding microarray; molecule type: double-stranded DNA, one strand shown; sample: in vitro; concentration: 250 nM; setting: 60-bp whole probe; with: salmon DNA 0.4 mg/ml; relative to: random background probes; direction: higher = stronger binding; constant ends, left off below: GCCTAGCAC … GTCTTGATTCGCTTGACGCTGCTG
# Target: Interferon regulatory factor 7, full length, phosphomimetic (IRF7, Homo sapiens, UniProt Q92985, residues 1-503, S101K/S471D/S472D/S475D/S476D/S477D/S483D/S484D/S487D)
# Target sequence (chain): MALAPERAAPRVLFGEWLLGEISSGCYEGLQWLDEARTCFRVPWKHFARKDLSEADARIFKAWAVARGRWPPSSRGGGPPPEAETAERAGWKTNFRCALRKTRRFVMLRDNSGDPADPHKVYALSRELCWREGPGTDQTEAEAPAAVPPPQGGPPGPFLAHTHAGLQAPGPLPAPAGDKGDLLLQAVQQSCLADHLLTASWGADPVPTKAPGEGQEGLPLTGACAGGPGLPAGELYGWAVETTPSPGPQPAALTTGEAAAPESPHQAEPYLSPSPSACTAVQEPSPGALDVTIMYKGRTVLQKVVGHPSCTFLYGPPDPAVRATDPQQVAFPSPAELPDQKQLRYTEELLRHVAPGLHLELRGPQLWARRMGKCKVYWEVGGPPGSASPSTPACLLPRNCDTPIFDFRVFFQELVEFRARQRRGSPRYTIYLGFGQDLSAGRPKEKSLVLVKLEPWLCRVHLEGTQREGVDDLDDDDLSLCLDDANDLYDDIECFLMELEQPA
Strand,log fluorescence [z-score]
TCAAGTTTGTATATATTACTGTGCTAG,0.0475
TCAGTTACCCACCTCAGACTGTGCTAG,0.414
TTAGGACTCGGTATCGGTTAGTGCTAG,3.04
AAGGGTTAAAATTTTGCTTCGTGCTAG,-0.569
CTTTTTTTTTTTTTTTTTTGGTGCTAG,1.12
TCAGCTCTGTTGCCTGGTACTGTGCTA,-0.547
GACGGTATCGGTTTCGGGACGTGCTAG,6.77
GACGGTATCGGACTGGGGAAGTGCTAG,-0.142
TTAGGTCTCCTTCACCTTTAGTGCTAG,0.0355
TTGTATTTGTCCCTATTTAAGTGCTAG,2.39
GACGGTTTCGACACTAGGGACGTGCTA,3.85
TTAGGTTTCCATCTCCTTTAGTGCTAG,3.28
TTCGGTATCCTTATCCTTTAGTGCTAG,0.484
GACGGTTTCGGGTCTGGGGACGTGCTA,8.35
GAGGATATCAGACTGGAGACGTGCTAG,-0.273
CTTTAACTCATTCTCCACTTGTGCTAG,1.02

# Set 6 — technique: universal PBM; molecule type: double-stranded DNA, one strand shown; sample: in vitro; concentration: 600 nM; direction: higher = stronger binding
# Target: Sal-like protein 4, full length isoform A (SALL4, Homo sapiens, UniProt Q9UJQ4, residues 1-1053)
# Chain of UniProt Q9UJQ4 (whole entry, looked up): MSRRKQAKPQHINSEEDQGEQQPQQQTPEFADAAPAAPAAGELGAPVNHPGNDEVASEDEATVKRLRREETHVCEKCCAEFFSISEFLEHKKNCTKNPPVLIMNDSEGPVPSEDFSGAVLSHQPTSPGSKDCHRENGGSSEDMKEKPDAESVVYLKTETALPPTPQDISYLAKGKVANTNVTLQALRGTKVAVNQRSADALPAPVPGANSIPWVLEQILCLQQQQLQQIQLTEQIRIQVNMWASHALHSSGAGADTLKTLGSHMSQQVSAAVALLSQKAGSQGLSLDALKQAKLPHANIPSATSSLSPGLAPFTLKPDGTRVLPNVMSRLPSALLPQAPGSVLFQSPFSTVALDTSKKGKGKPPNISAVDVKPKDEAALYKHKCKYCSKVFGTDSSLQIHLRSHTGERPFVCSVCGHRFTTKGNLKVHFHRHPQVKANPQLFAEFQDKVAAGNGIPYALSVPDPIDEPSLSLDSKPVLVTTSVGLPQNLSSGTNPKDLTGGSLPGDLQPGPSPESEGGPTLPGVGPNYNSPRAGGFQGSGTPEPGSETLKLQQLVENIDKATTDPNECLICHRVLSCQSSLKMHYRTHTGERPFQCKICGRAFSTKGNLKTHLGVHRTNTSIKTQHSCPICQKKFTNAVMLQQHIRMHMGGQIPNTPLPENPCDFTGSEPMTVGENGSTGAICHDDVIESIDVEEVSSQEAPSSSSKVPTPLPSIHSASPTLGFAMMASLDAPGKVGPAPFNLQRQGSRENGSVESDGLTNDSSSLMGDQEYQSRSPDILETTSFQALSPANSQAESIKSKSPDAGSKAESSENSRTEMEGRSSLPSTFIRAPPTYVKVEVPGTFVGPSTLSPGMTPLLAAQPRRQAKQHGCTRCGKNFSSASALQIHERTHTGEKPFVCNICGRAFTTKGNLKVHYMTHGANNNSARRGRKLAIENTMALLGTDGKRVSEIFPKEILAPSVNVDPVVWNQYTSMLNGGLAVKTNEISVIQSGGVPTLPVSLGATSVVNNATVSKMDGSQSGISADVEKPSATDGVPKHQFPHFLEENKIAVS
# Setting: 8-mer, flanks averaged, mean of replicates
Strand,E-score
TAGCTCGA,-0.116
ACAGGGGA,-0.177
CACTTAGC,-0.176
TAGGTTGA,0.000865
GGGTACAA,-0.0206
AAGCCGAC,-0.261
AAACAGAC,0.0833
GGCACAAC,-0.0139
CTCAAAAC,0.15
ATTTACCG,0.122
GACACGTA,0.143
AATTTGAG,0.225
AACCAGTT,0.152
CACTTGAA,0.119
GTTCACTA,0.0162
GCCACAGC,-0.283

# Excerpt of the above (set 2):
Strand,E-score
ATAACAA,0.279
GGTATAC,0.284
GGATATA,0.41
AATAAAC,0.367
ACTTAAT,0.285
GTCATAA,0.26
AAAATTA,0.323
ACATATG,0.271
ATATCTA,0.349
ATATCAT,0.369
ATAAGGC,0.255
AAAATAC,0.288
TATACGA,0.309
TAATTAA,0.385
